Measured values pooled from the literature.
Parts stem from different laboratories: compare values within a part only. Values joined by “and” are separate records of one study, mostly repeats; a detail may differ.

Set 1
Structure (SMILES): Cc1ccc(O)c(C)c1-c1cnc2[nH]c(-c3cnc(N4CCC5(CC4)CC(N4CCN(c6ccc(N[C@H]7CCC(=O)NC7=O)cc6F)CC4)CO5)nc3)cc2c1C#N (single isomer, unassigned)
Technique: KINOMEscan
Concentration: 1000 nM
Reference: control
| target | remaining binding [%] |
| --- | --- |
| LCK | 97 |
| CSNK2A2 | 47 |
| CASK | 45 |
| WEE1 | 91 |
| MKNK2 | 81 |
| SRC | 19 |
| FRK | 71 |
| PIK4CB | 96 |
| BRAF | 14 |
| CSNK1A1 | 86 |
| RAF1 | 28 |

Set 2
SMILES: CCN1/C(=C/C=C2\CCCC(/C=C/C3=[N+](CC)c4ccccc4C3(C)C)=C2NCCCCCCCCN2CCC(Nc3nc4ccccc4n3Cc3ccc(F)cc3)CC2)C(C)(C)c2ccccc21
Cell line: U-87 MG
Concentration: concentration not given
Reference: DMSO
| measured | log2 fold change |
| --- | --- |
| TMEM232 mRNA | 1.59 |
| WARS1 mRNA | 1.29 |
| UCN2 mRNA | -1.27 |
| UHRF1 mRNA | -2.59 |
| ERLIN1 mRNA | -0.835 |
| OLFML2A mRNA | -2.55 |
| ZNF512B mRNA | -0.878 |
| RARG mRNA | -1.12 |
| CPAMD8 mRNA | 4.54 |
| SVEP1 mRNA | -2.15 |
| KATNAL1 mRNA | -0.994 |
| DEPDC1B mRNA | -1.8 |
| CCN1 mRNA | -1.95 |
| TRIOBP mRNA | -0.913 |
| PPP1R14C mRNA | 1.47 |
| HSPA2 mRNA | -1.25 |

Set 3
SMILES: CC(C)(C)c1ccc(Oc2ccc3c(c2)OC(O)(C(=O)O)C(=O)N3Cc2ccccc2)cc1 (stereo not shown)
Organism: Arabidopsis thaliana
Strain: Col-0
| concentration | setting | hypocotyl length |
| --- | --- | --- |
| 12.5 µg/mL | seed germination, repetition mean | 1.86 cm |
| 6.25 µg/mL | seed germination, repetition mean | 2.04 cm |
| 100 µg/mL | seed germination, repetition mean | 1.24 cm |
| 25 µg/mL | seed germination, repetition mean | 1.73 cm |
| 25 µg/mL | seed germination, single repetition | 1.71 cm and 1.75 cm and 1.78 cm and 1.68 cm and 1.74 cm |
| 3.125 µg/mL | seed germination, repetition mean | 2.3 cm |
| 100 µg/mL | seed germination, single repetition | 1.25 cm and 1.26 cm and 1.23 cm and 1.21 cm and 1.24 cm |
| 6.25 µg/mL | seed germination, single repetition | 2.05 cm and 2.06 cm and 1.96 cm and 2.01 cm |
| 3.125 µg/mL | seed germination, single repetition | 2.35 cm and 2.31 cm and 2.28 cm and 2.29 cm |

Set 4
Structure (SMILES): COc1cc(C(=O)OCCCN2CCCN(CCCOC(=O)c3cc(OC)c(OC)c(OCc4ccc([N+](=O)[O-])cc4)c3)CC2)cc(OC)c1OC
Host: mice, male and female, formalin pain
Route: intrathecal
Added: formalin 5%, 20 µL intraplantar
Direction: higher = more pain
| dose | time | licking and flinching time |
| --- | --- | --- |
| 10 nmol | 40-45 min after formalin | 0.51 a.u. and 14.8 a.u. and 2.47 a.u. and 7.24 a.u. and 16.4 a.u. and 18.7 a.u. and 1.41 a.u. and 1.29 a.u. |
| 1 nmol | 25-30 min after formalin | 16.1 a.u. and 101 a.u. and 158 a.u. and 14.5 a.u. and 61.9 a.u. and 31.6 a.u. and 19.4 a.u. and 78.5 a.u. |
| 1 nmol | 30-35 min after formalin | 85.8 a.u. and 10 a.u. and 31.2 a.u. and 26.5 a.u. and 3.66 a.u. and 44.4 a.u. and 36.6 a.u. and 85.4 a.u. |
| 100 nmol | 35-40 min after formalin | 53 a.u. and 0.33 a.u. and 1.98 a.u. and 0.7 a.u. and 76.8 a.u. and 13.4 a.u. and 15.7 a.u. and 55.9 a.u. |
| 100 nmol | 30-35 min after formalin | 20.9 a.u. and 8.67 a.u. and 4.76 a.u. and 39.1 a.u. and 7.67 a.u. and 14 a.u. and 100 a.u. and 2.2 a.u. |
| 10 nmol | 10-15 min after formalin | 3.84 a.u. and 12.8 a.u. and 39.3 a.u. and 114 a.u. and 9.93 a.u. and 1.44 a.u. and 1.65 a.u. and 12.2 a.u. |
| 1 nmol | 10-15 min after formalin | 11.4 a.u. and 10.9 a.u. and 16.3 a.u. and 15 a.u. and 9.81 a.u. and 49.2 a.u. and 4.03 a.u. and 11 a.u. |
